# Measurements gathered from unrelated publications.
# Lines come from different studies, so protocols differ.
# Target: D(1A) dopamine receptor (DRD1, Homo sapiens, UniProt P21728)
# Sequence of UniProt P21728 (whole entry, looked up): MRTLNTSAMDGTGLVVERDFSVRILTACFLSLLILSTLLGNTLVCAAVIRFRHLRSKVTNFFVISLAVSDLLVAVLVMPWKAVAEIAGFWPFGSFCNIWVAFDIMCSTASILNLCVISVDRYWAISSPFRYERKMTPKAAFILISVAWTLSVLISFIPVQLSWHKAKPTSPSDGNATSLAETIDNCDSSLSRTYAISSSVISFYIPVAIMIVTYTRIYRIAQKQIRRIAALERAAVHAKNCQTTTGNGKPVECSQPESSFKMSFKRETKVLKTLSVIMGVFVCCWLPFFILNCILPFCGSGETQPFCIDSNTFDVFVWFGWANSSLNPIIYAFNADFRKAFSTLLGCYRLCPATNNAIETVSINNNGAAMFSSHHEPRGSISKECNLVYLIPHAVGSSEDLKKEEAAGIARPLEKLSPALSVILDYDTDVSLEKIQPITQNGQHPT
Structure (SMILES),assay,test system,setting,inhibition
Brc1ccccc1-c1nnc(CSc2nnnn2-c2ccccc2)o1,"ligand displacement, radioligand",,10 µM,-1%
COc1ccc(S(=O)(=O)N2CCc3ccccc3C2)cc1N1CCN(C(=O)c2ccc(F)cc2C(F)(F)F)CC1,"ligand displacement, radioligand",,1 µM,-11.4%
O=C(CN1CCO[C@@H](COc2cccc(Cl)c2)C1)N1CCc2ccccc21,radioligand binding,,"concentration not given, added: [3H]SCH23390",23%
Cc1[nH]nc2c1N=C(c1ccccc1Cl)c1cnc(N3CCOCC3)cc1N2,cell-free assay,,10 µM,0%
O=C1c2sc(-c3ccc(N4CCC(F)C4)nc3F)nc2CCN1c1cccnc1 (stereo not drawn),"ligand displacement, radioligand",,1 µM,-2%
Cn1ccc2cc(-n3c(=O)[nH]c4sc5c(c4c3=O)CCCC5)ccc21,"cell-free assay, radioligand",,10 µM,14%
CO[C@@H](C)c1c(NC(=O)Nc2cnc(-n3nccn3)c(C(F)(F)F)c2)cnc2sc(C)nc12,"ligand displacement, radioligand",,10 µM,6.1%
c1ccc(OC[C@H]2CN(CCN3CCc4ccccc43)CCO2)nc1,radioligand binding,,"concentration not given, added: [3H]SCH23390",29.9%
CCC(=O)N(C)c1ccc(Cl)c(Cl)c1,"ligand displacement, radioligand",,10 µM,< 10%
COc1ncc2nc(C)n(Cc3ncc(S(N)(=O)=O)cc3F)c2c1-c1ccccc1,"antagonist, cell-based",,10 µM,-8.95%
Cc1ccnc(OC[C@H]2CN(CCN3CCc4ccccc43)CCO2)c1,radioligand binding,,"concentration not given, added: [3H]SCH23390",56.4%
CNC(=O)C[C@H](Cc1ccc(C#N)cc1)NC(=O)c1cc(-c2ccc(CN[C@H](C)c3ccc(C)cc3)o2)ccc1Cl,"agonist response, antagonist",human cells,"10 µM, D1 antagonist",1%
COCC(=O)N1CCc2cc(-c3csc(NC(=O)c4cc(OC)cc(OC)c4)n3)ccc21,cell-free assay,,10 µM,6%
COc1ccc(C(=O)Nc2c(-c3cccs3)nc3ccccn23)cc1,"ligand displacement, radioligand",,10 µM,< 50%
COc1ccc(C#CC2=C[C@H]3C[C@@]4(OC(=O)C=C24)[C@H]2CC[C@H](C(OC)OC)N32)cc1,"ligand displacement, radioligand",,10 µM,14%

# Repeated from above:
Structure (SMILES),assay,test system,setting,inhibition
CO[C@@H](C)c1c(NC(=O)Nc2cnc(-n3nccn3)c(C(F)(F)F)c2)cnc2sc(C)nc12,"ligand displacement, radioligand",,10 µM,6.1%
